Experimental data gathered from unrelated publications.
Lines come from different studies, so protocols differ. ± gives the spread as reported.

Structure (SMILES) | cell line | assay | conditions | scale | endpoint | value
COc1cc(CNC(=O)C[C@H](C)CCC=C(C)C)ccc1OCc1cn(-c2cccc([N+](=O)[O-])c2)nn1 | EKVX | SRB | 10 µM, 48 h | – | growth percent | 69%
CC(C)Cc1ccc(C(C)C(=O)N/N=C/c2ccc(OCC(=O)N/N=C/c3c(O)ccc4ccccc34)cc2)cc1 (stereo not drawn) | U87 MG | MTT | 150 µM, 48 h | – | viability | 90.2%
COc1cc(CN2CCN(c3ccc(C(F)(F)F)cc3)CC2)c2cc3[n+](cc2c1O)CCc1cc2c(cc1-3)OCO2 | HeLa and MDCK | SRB | 48 h | baseline: CC50 MDCK over IC50 HeLa | therapeutic index | 27.8
CC(C)=CCc1c(OCC2OC2(C)C)ccc2ccc(=O)oc12 (stereo not drawn) | COLO 320 (ABCB1-overexpressing, multidrug-resistant) | cell growth | 150 µM starting, CI at ED50, with: doxorubicin, ratio 557.44:1 | – | combination index | 0.73
COc1cc(CNC(=O)C[C@H](C)CCC=C(C)C)ccc1OCc1cn(-c2ccc(F)cc2)nn1 | EKVX | SRB | 10 µM, 48 h | – | growth percent | 65.2%
[Cl-].[Cl-].[Ru+2].c1ccc(-c2cccc(-c3ccccn3)n2)nc1.c1ccc2nc(-c3ccc4ccccc4n3)ccc2c1 | A549 | oxygen consumption rate, Seahorse extracellular flux | 1 h, dark | – | lowest concentration inhibiting OCR | 10 µM
COc1cc(CNC(=O)C[C@H](C)CCC=C(C)C)ccc1OCc1cn(-c2ccccc2Cl)nn1 | EKVX | SRB | 10 µM, 48 h | – | growth percent | 54%
CC1(C)OC(=O)C[C@H](O)[C@]2(C)[C@H]3CC[C@@]4(C)[C@H](c5ccoc5)OC(=O)[C@H]5O[C@]54[C@]3(C)C(=O)C[C@@H]12 | COLO 320 (ABCB1-overexpressing, multidrug-resistant) | cell growth | 200 µM starting, CI at ED50, with: doxorubicin, ratio 23.2:1 | – | combination index | 1.18
C=C(CC)C(=O)c1ccc(OCC(=O)NCCCCNC(=O)COc2ccc(C(=O)C(=C)CC)c(Cl)c2Cl)c(Cl)c1Cl | SK-OV-3/DDP cisplatin-resistant | cell growth, CCK-8 | 0.2 µM, with: cisplatin | – | sensitisation to cisplatin | ~3 fold
COc1ccc(C2=Nn3c(NN=C4C(=O)N(Cc5ccccc5)c5ccc(Cl)cc54)nnc3SC2)cc1 | EKVX | cell growth or viability, SRB | 10 µM | – | inhibition | 12%
COc1cc(CNC(=O)C[C@H](C)CCC=C(C)C)ccc1OCc1cn(-c2ccccc2)nn1 | EKVX | SRB | 10 µM, 48 h | – | growth percent | 74.3%
COc1ccc2c(c1)CCN(c1cccc(-c3nc4ccc(N5CCN(C)CC5)cc4[nH]3)c1)C2 | HT-22 | protection from ferroptosis, CCK-8 viability | 24 h, with: 1 µM erastin | – | EC50 | 1.01 µM
COc1ccc(NC(=O)COc2ccc(/C=C/C(C)=N/O)cc2OC)cc1 | SH-SY5Y | DCFDA flow cytometry | 20 µM, with: amyloid beta 10 µM | – | ROS positive cells | 18.8%
N[C@@H](CSC(F)(F)[18F])C(=O)O | C6 | – | concentration not given, 120 min | – | protein incorporation | 4.5%
O=Cc1c(O)ccc2ccccc12 | HUVEC | RNA sequencing, measured: SAT1 | 75 µM, 24 h | baseline: DMSO | log2 fold change | 2.6
C=C(C)[C@@H]1CC[C@]2(C(=O)OCO/N=[N+](\[O-])N3CCCC3)CC[C@]3(C)[C@H](CC[C@@H]4[C@@]5(C)CC[C@H](OC(C)=O)C(C)(C)[C@@H]5CC[C@]43C)[C@@H]12 | B16-F10 | western blot, measured: pro-apoptotic proteins | 0.25 to 1.0 µM, 48 h | – | protein level | increased
COc1ccc(S(=O)(=O)N2CCc3ccccc3C2)cc1N1CCN(C(=O)c2ccc(F)cc2C(F)(F)F)CC1 | mouse midbrain dopamine neurons | – | 75 nM, 48 h, with: MPP+ 2 µM | – | TH-positive neuron count | 335 ± 20.3
C[C@H](NC(=O)CNC(=O)[C@H](CCC(=O)O)NC(=O)[C@H](CCC(=O)O)NC(=O)[C@H](CC(=O)O)NC(=O)[C@@H]1CCCN1C(=O)[C@H](Cc1ccccc1)NC(=O)[C@H](CS)NC(=O)[C@H](Cc1ccc(O)cc1)NC(=O)CCCNC(=O)CNC(=O)CNC(=O)[C@@H](C)NC(=O)CN)C(=O)N[C@@H](CS)C(=O)N[C@@H](Cc1ccc(O)cc1)C(N)=O [technetium-99m labelled] | SK-BR-3 | – | 1 h, 37 °C | – | internalization | 7.21 ± 0.09%
Nc1nc2cc(CC[C@H]3C[C@@H](n4ccc5c(N)ncnc54)[C@H](O)[C@@H]3O)ccc2cc1Br | COLO 699 | measured: SmD1/3-Me2 | 10 nM, 72 h | – | SmD1/3 dimethylation reduction | > 80%
O=c1[nH]c(N2CCC3(CC2)CN(CCO)c2cc(F)cc(F)c23)nc2c1CCCC2 | COLO 320DM | immunofluorescence, measured: non-phosphorylated β-catenin | 1 µM, 16 h, DMSO 100% | – | active β-catenin level | 0.63%

Structure (SMILES) | cell line | assay | conditions | scale | endpoint | value
COc1cc(CNC(=O)C[C@H](C)CCC=C(C)C)ccc1OCc1cn(-c2ccc([N+](=O)[O-])cc2)nn1 | EKVX | SRB | 10 µM, 48 h | – | growth percent | 75.2%
Cc1ccc(C(C)C)cc1.O=C([N-]c1nc2ccccc2[nH]1)c1cnccn1.[Cl-].[Ru+2] | Caco-2 | cytotoxicity, MTT | – | baseline: KMST-6 over Caco-2 | selectivity index | > 2
CC(C)Cc1ccc(C(C)C(=O)N/N=C/c2ccc(OCC(=O)N/N=C/c3ccc([N+](=O)[O-])cc3)cc2)cc1 (stereo not drawn) | U87 MG | MTT | 80 µM, 48 h | – | viability | 77.4%
O=[N+]([O-])c1c(Nc2cc(F)cc(Cl)c2)ccc2nonc12 | Hep3B | measured: EPAS1 | 1 or 10 µM | – | mRNA level | no effect
CC[C@H](C)[C@@H]1NC(=O)[C@H]([C@@H](C)O)NC(=O)[C@H](Cc2ccc(O)cc2)NC(=O)[C@H](CCCNC(=N)N)NC(=O)[C@@H]2CCCN2C(=O)[C@H]2CCCN2C(=O)[C@H]([C@@H](C)O)NC(=O)[C@H](C(C)C)NC(=O)[C@H](C(C)C)NC(=O)[C@H](CCCCN)NC(=O)[C@H]([C@@H](C)O)NC(=O)[C@H](CCC(N)=O)NC(=O)[C@H](CO)NC(=O)[C@H](Cc2ccc(O)cc2)NC(=O)[C@H](CO)NC(=O)[C@H](Cc2ccc(O)cc2)NC(=O)[C@@H]2CCCN2C(=O)[C@H](CO)NC(=O)[C@H](CO)NC(=O)[C@H](CC(C)C)NC(=O)[C@H](CCCCN)NC(=O)[C@H](C)NC1=O | human iPSC-derived neurons | – | 0.25 µM, 24 h, with: amyloid beta 5 µM, oligomer-forming | baseline: amyloid beta alone | total cell-associated amyloid beta | ~47%
COc1cc(CNC(=O)C[C@H](C)CCC=C(C)C)ccc1OCc1cn(-c2ccc(Br)cc2)nn1 | EKVX | SRB | 10 µM, 48 h | – | growth percent | 79%
CCC[C@H]1CC[C@H](c2ccc(NC(=S)NC[C@@H]3[C@@H](O)[C@@H](O)[C@H]4[C@H](O)CCCN43)cc2)CC1 | Huh-7 | fluorescent lectin imaging | 10 µM, 48 h | – | galectin-1 binding to cell surface | decreased
CCOC(=O)c1csc2nc(-c3cccc(NC(=O)c4cc5cc(NC(=O)C(C)Cl)ccc5n4Cc4ccc(C(F)(F)F)cc4)c3)cn12 (stereo not drawn) | RAW264.7 | – | 10 µM, with: LPS | baseline: control | intracellular GSH level | decreased
C=CC(=O)N1C[C@H](C)N(c2nc(OC[C@@]34CCCN3C[C@H](F)C4)nc3c(F)c(-c4ccc(F)c5sc(N)c(C#N)c45)c(C(F)(F)F)cc23)C[C@H]1C | MEF expressing wild-type KRAS4b | pERK | – | baseline: KRAS G12C over wild-type KRAS4b | potency ratio | 5 to 10
COc1cc(/C=C/C(=O)/C=C/c2ccc(O)c(OC)c2)ccc1O | CEM-T | propidium iodide flow cytometry | 1 µM, 24 h | baseline: untreated | S-phase cells | 1.4 fold
O=C1Nc2ccc(F)cc2C1=Cc1c(Cl)[nH]c2c1ccc1ccccc12 | colon cancer subpanel of NCI-60 | – | 48 h | – | TGI | 6.92 µM
Cc1cc(Nc2ccc(NC(=O)c3ccc(NC(=O)c4ccncc4)cc3)cc2)nc(N)n1 | KG-1 with methylated CMV-luciferase | luciferase reporter gene | 3.2 µM, 24 h | baseline: untreated | reporter reactivation | 1.2 ± 0.1 fold
O=C1OCC2=C1C(c1cccc(Br)c1)C1=C(N2)C(=O)c2ccccc2C1=O (stereo not drawn) | SK-LU-1 cells | PI flow cytometry | 0.16 µM, 24 h | – | cells in G2/M phase | 69.2%
CC(=O)O[C@@H]1CC[C@@]2(C)C(CC[C@]3(C)C2C(=O)C=C2C4[C@@H](C)[C@H](C)CC[C@]4(C)CC[C@]23C)[C@@]1(C)C(=O)Oc1cc(C)ccc1C(C)C (stereo partly drawn) | RAW264.7 | NO release, inhibitor, Griess | 10 µM, 24 h, LPS-stimulated | – | inhibition | 82.1%
CC(C)(C)C(=O)Nc1ccc2[nH]c(CN3CCC(N(CCCN4CCOCC4)CC4OC(n5cnc6c(N)ncnc65)C(O)C4O)CC3)nc2c1 (stereo not drawn) | H460 R231Q cells | tumorsphere formation | 5 µM, 7 to 14 days | – | inhibition | 92.1%
CC(Cc1ccc(Cl)cc1)=C(c1ccc(Cl)cc1)c1ccc(OCCN(C)C)cc1 | OVCAR-5 | cell growth or viability | – | – | GI50 | 4.79 µM
COc1cc(CNC(=O)C[C@H](C)CCC=C(C)C)ccc1OCc1cn(-c2ccc(Cl)cc2Cl)nn1 | T47D breast cancer cells | SRB | 10 µM, 48 h | – | growth percent | 60.2%
CC(C)Cc1ccc(C(C)C(=O)NN=Cc2ccc(OCC(=O)NN=Cc3cccc([N+](=O)[O-])c3)cc2)cc1 (stereo not drawn) | U87 MG | MTT | 150 µM, 48 h | – | viability | 59.1%
COc1cc2c(OC3OCC(OC)C(OC)C3OC(=O)c3ccc(Br)cc3)c3c(c(-c4ccc5c(c4)OCO5)c2cc1OC)C(=O)OC3 (stereo not drawn) | CAL-27 | qRT-PCR | concentration not given, 72 h | – | Bax/Bcl-2 mRNA ratio | increased
